Measurements from different studies.
Each numbered part is a random draw from the data of one study; scales do not carry over between parts.

Block 1
Target: RING finger protein unkempt homolog, zinc fingers 1-6, GST-SBP tag (UNK, Homo sapiens, UniProt Q9C0B0, residues 30-357)
Method: RNA Bind-n-Seq
Molecule type: RNA
Sample: in vitro
Concentration: not given
Setting: RNA with constant flanks, human and mouse sites, ends assumed
Reference: input RNA pool
Reading: higher = stronger binding
Target sequence (chain): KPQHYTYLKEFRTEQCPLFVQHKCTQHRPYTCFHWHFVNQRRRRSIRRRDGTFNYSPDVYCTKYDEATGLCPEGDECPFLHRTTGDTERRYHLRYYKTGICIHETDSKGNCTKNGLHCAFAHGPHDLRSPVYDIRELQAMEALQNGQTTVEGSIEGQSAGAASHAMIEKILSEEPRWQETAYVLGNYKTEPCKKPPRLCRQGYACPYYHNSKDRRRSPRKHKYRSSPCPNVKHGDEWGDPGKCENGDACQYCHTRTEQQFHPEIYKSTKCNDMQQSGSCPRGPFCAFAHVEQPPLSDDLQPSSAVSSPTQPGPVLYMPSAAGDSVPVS
| Sequence | bound/input enrichment |
| --- | --- |
| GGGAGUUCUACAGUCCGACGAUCCUCAGGAGAAGGCAUGUUUAGAAGACCAUCAGAAGGACAGUCCCUCAUCAGUUACCUCUCUGAGCAAGACUUUGGCAGCUGUGCAGACCUGGAAAAGGAAAACGCCCACUUCAGCAUCUCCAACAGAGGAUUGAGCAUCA | 0.16 ratio |
| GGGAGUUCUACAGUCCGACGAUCGUGCUGGCUGUGUCGAAAGUGGAGGAGCUGACGAGGCAGCUGGAGAUGCUGAAGAACGGCAGGAUCGAUGGCCACCACGACAACCAGUCGGCCGUGGCUGAGCUGGACCGCCUUUACAAGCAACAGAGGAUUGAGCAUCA | 0.0903 ratio |
| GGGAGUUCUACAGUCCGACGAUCAUUGCUAUGGGAUUUCCUGCAGAAAGACUUGAAGGUGUAUACAGGAACAAUAUUGAUGAUGUAGUAAGGUUUUUGGAUUCAAAGCAUAAAAACCAUUACAAGAUAUACAAUCUAUGUGCUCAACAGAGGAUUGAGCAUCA | 0.738 ratio |
| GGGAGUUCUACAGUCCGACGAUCAUAGAAGCAGCGCCUGAGUCCCAGAUGAUGCCCGCCAGCGUCCUAACGGGCAAUGUCAUCAUAGAGACAAAGUUCUUUGACGAUGAUCUUCUUGUCAGCACAUCCAAAGUGAGGCUUUUCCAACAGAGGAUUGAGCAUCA | 0.11 ratio |
| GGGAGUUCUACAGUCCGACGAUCUUCGACUUUCUUUGCCAGUACCAUAAACCAGCAAGCAAGAUUCCUGCUUUCCUAAAUGUAGUGGAUAUUGCUGGCCUUGUAAAAGGAGCUCACAAUGGGCAGGGCUUGGGGAAUGCCUUUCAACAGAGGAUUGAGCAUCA | 0.171 ratio |
| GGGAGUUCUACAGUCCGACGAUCGGAGACUCAACAGCAAGAAUAUGGAAUCUUAGUGAGAACAGCACCAGUGGCUCUACACAGUUAGUACUUAGACAUUGUAUACGAGAAGGAGGGCAAGAUGUUCCAAGCAACAAGGAUGUCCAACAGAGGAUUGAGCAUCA | 2 ratio |

Block 2
Target: RNA binding protein fox-1 homolog 2, RRM domain, GST-SBP tag (RBFOX2, Homo sapiens, UniProt O43251-10, residues 100-194)
Method: RNA Bind-n-Seq
Molecule type: RNA
Sample: in vitro
Concentration: 365 nM
Setting: natural RNA segment, single round, ends assumed
Reference: no-protein control
Reading: higher = stronger binding
Target sequence (chain): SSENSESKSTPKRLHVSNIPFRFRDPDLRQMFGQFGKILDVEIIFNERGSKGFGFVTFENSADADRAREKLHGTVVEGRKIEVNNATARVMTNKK
| Sequence | RBNS enrichment (R) |
| --- | --- |
| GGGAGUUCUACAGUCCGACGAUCCUGCCCCUUUCAGGCCUACAGCCACAUCCCCAAGCCCACCAGGUGUCAGGAUAGUCACAGUGAUACCAGUUCAGACACUACCCCAUAUACACCUGGAACAUUGAGGAUGGUGGAAUUCUCGGGUGCCAA | 0.369 |
| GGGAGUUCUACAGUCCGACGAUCAGGUAGCUGAAGGCCUCAGCCCACCCACUCCCUUCUUCCCUGUGUGGGGCUCAAGCCUGGUGCACUUAGUAUAGAAGAGCUAACGUACUCAGGCUUGUGCCACGGGUGAGUGGAAUUCUCGGGUGCCAA | 0.331 |
| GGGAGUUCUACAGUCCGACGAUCAUAUACAAGUGUAUGAUGUACAUUUUAGUUCUUAACUUUUUUAUGGUUUCUAAUAUGUAUGACCAAUGUAGCCAUUGCUUUGAAAUGUAAAUAUAAACACGUCCUAUCCGUGGAAUUCUCGGGUGCCAA | 0.561 |
| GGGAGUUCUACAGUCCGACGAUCUUGAUAAAUUAGCUACUACAACCCCAUGGAACCAAGUCUUUUCAAAUUUCAACAAAUUGUCUUUGAGUCAGAAAAGUUAGAUAAUUCUUCAACUGUUUGAAAUAAUGCUCUGGAAUUCUCGGGUGCCAA | 0.643 |
| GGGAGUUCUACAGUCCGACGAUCGCUCGUCCUUUUCCAGGACACAAUGGAACUGUCGGAAGAAGAGUUUCUAGAAAGUUAGGAUUGGGCAGAUAGUUGAGUCCUAAUCUAUCAAAUCAUUGUUGCCUCUCAUAUGGAAUUCUCGGGUGCCAA | 0.401 |
| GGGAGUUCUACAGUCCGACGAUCUAUCCCAGGCCUGUGCGUGGUGGAAAAAGCCAGCCUUGGCCCUGCAGCCUCCACCUCGCCGCUGGGGGACCAACAGGUUGCUUACAGCUUUGCACCCCGGCAUCAGCACAUGGAAUUCUCGGGUGCCAA | 7.89 |
| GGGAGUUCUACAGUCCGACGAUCGGACACGUAGAGAAAGGACAUUCAUGACAUCCCUGUGGUGUGGUUAAUGUGCGACGUGUCGCCCAAGCUCUGCCCUAAGAAGCUUCUUAGUGACUCCAGCCACCUGAGAGUGGAAUUCUCGGGUGCCAA | 0.187 |
| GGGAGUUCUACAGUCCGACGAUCCUGUGGCAAUUACAGUUUUUGACUUUUCCAUGUGAGAAUAAGGCCUUGGUAUUUCCCUAAGGGCAGGAUCAGAAAACAGGAAGGUCCAUGCCCAGGUGAUCCUCCAAGGGUGGAAUUCUCGGGUGCCAA | 0.486 |

Block 3
Target: Max-binding protein MNT, bHLH-zipper, MAX partner unstated (MNT, Homo sapiens, UniProt Q99583, residues 220-300)
Method: protein-binding microarray
Molecule type: double-stranded DNA, one strand shown
Sample: in vitro
Concentration: not given
Setting: k-mer, scored over probes, only values ≥0.25
Reading: higher = stronger binding
Target sequence (chain): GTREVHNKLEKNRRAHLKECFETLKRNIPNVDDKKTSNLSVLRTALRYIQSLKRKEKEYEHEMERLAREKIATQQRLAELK
| Sequence | E-score |
| --- | --- |
| AGGTCACG | 0.316 |
| ATGTGTAC | 0.262 |
| AAGCGTGT | 0.354 |
| ACGCGACT | 0.383 |
| CCCACACA | 0.252 |
| ACGAGCGT | 0.25 |
| ATCACGAG | 0.37 |
| CATGGGGG | 0.37 |
| ATGGCATG | 0.364 |
| CGCGTGGA | 0.455 |
| CGTGGTGA | 0.348 |
| CACGAGAA | 0.333 |
| CTCGTGCA | 0.394 |
| CCCACGGG | 0.282 |
| GTGGCAGA | 0.261 |
| CAGGTGGG | 0.353 |
| CACATGTC | 0.457 |
| AACGCACG | 0.407 |
| GCGTGGGA | 0.406 |
| GTACACGA | 0.348 |
| ACATGGAG | 0.349 |
| AAACACGC | 0.397 |
| CACCGTGG | 0.254 |

Block 4
Target: Ras GTPase-activating protein-binding protein 1, full length (G3BP1, Homo sapiens, UniProt Q13283)
UniProt Q13283, sequence (whole entry, looked up): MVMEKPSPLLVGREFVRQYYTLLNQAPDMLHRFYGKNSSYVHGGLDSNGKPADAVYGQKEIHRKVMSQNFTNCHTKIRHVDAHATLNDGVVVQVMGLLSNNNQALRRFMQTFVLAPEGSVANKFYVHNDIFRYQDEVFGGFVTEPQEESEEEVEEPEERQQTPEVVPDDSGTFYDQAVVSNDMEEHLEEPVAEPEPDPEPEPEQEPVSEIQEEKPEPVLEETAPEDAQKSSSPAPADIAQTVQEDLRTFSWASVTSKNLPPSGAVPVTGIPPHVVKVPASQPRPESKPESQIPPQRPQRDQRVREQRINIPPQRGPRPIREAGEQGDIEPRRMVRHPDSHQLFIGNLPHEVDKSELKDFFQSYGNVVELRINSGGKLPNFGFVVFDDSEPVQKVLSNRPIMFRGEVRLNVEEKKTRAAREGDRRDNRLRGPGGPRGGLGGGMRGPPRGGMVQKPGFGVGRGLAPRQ
Method: RNA Bind-n-Seq
Molecule type: RNA
Sample: in vitro
Concentration: 200 nM
Setting: whole 134-nt RNA, ends assumed
With: 150 mM KCl
Reference: input library
Reading: higher = stronger binding
| Sequence | log2 enrichment |
| --- | --- |
| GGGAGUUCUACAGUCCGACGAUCAGUCCUGUGCUACACAUCGUAUGUACCGAAUCAAACCCAAACCCAAACCCCCCCAAAAAAGUAUUAUGUUACGCCGUUCGGAUCUGCACUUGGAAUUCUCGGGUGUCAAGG | -0.569 |
| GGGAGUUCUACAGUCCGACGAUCCACAGACAACACGCACACACACAGACACAGAGGGAAGGGGUUGGGAUGGGGACAGGGUGCACAGCAGGGCGGGGUAGGACCCCAGCCCCUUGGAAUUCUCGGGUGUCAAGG | 1.08 |
| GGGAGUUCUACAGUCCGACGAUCUUAGGUGGCUCCAGGAUGUAUUUAACGUGCCCUUGGUCAUCCAGAUGACGGAUGACGAGAAGUAUCUGUGGAAGGACCUGACCCUGGACCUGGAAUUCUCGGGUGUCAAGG | -0.507 |
| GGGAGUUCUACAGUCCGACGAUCCAAGUCCUGUGCUACACAUCGUAUGUACCGAAUCGGGGAGGGGAAAGGGGAGGGGAAAGUAUUAUGUUACGCCGUUCGGAUCUGCACUUCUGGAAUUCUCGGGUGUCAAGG | 1.41 |
| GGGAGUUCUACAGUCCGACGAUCUGGCCCUGGUGGCAUGCGGGGAGGAAGAGGUGGACUCAUGGAUCGUGGUGGUCCCGGUGGAAUGUUCAGAGGUGGCCGUGGUGGAGACAGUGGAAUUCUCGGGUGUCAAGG | 0.387 |
| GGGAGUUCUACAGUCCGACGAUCGAUCUCCGGGCUCAGUUGCAGAUUCUGGCCAACAUGGACAGCCAGCUAAAAGAGCUACAGAGUCAGCAUACCCAUUGUGCCCAGGACCUGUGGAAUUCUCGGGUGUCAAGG | -1.28 |
| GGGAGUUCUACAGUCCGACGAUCCUCAAGUCCUGUGCUACACAUCGUAUGUACCGAAUCGGGGUGGGGUGGGGUGGAAAGUAUUAUGUUACGCCGUUCGGAUCUGCACUUCCAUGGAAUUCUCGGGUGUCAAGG | 1.24 |
| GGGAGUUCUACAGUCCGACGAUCUCCUGUGCUACACAUCGUAUGUACCGAAUCGGGCCCCCCGGCCCCCCGGGCCCCCCGGGAAAGUAUUAUGUUACGCCGUUCGGAUCUGCAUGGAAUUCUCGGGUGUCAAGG | -0.473 |
| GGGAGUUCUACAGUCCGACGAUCCUGUGCUACACAUCGUAUGUACCGAAUCGGGCCCCCCCGGGGCCCCCCCGGGGCCCCCCCGGAAAGUAUUAUGUUACGCCGUUCGGAUCUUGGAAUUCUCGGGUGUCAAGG | -2.13 |

Some of these lines once more (block 3):
| Sequence | E-score |
| --- | --- |
| GTGGCAGA | 0.261 |
| AACGCACG | 0.407 |
